Results collected from several papers.
A part holds a random share of what one study measured.

Study 1
Target: RING finger protein unkempt homolog, zinc fingers 1-6, GST-SBP tag (UNK, Homo sapiens, UniProt Q9C0B0, residues 30-357)
Method: RNA Bind-n-Seq
Form: RNA
Medium: in vitro
Concentration: not given
Setting: RNA with constant flanks, human and mouse sites, ends assumed
Baseline: input RNA pool
Direction: higher = stronger binding
Construct (chain): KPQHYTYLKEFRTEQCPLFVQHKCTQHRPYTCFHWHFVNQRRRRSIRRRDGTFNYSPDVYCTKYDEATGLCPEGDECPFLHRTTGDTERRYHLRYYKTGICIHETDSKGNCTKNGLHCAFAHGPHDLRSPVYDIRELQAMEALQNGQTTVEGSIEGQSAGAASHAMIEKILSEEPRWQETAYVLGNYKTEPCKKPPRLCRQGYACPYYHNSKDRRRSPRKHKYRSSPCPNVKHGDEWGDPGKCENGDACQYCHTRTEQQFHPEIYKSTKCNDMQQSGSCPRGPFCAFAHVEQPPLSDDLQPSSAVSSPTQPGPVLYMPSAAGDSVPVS
| Sequence | bound/input enrichment [ratio] |
| --- | --- |
| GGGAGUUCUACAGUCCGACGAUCGUGCUCCCCCGGGAUCUCUUCCAAAAGCUCUUCAGACAGGACUUGCUGGUGGCUAGUCUGUUUCGAAAUUUUUUAUUGGCGGAAAGGAUUAUGAGGUCGUAUAACUGCACUCCCGUCAGCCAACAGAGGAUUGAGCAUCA | 0.294 |
| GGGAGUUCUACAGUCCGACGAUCAGAAUCCCGAAUCCUGGGCCUGUCCAGGGUCAAAUGGAGUUUUUGGUAUUAAUACAUCUCUGCAGGGUUUCUUUUUGGAGCACUGUGCUGUCUUUCCUAGUCAGUCAGGGACUUUUUUAACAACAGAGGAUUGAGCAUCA | 0.202 |
| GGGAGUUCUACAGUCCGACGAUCUUUGUAAAUUUCUCCGAGCAGAAAGAAAAGUUAAUAAAGCGUCAAGAAGAGUUAGAUAGGGGUUACAAAUCAAUCAUGGAACUGAUGAAUGUACUUGAACUUCGGAAAUAUGAAGCUAUUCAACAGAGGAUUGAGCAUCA | 1.19 |
| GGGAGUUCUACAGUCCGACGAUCGCCAGGCCGUAUACUGGGUUCACAUAUCAGGCUGCAGGAAAGGCAGUAUGAUAUAAGGUAAGGGCAUAGGAAAUGAAGCUGAAAUGGACACACACACACACACACACACUGAUAAACUUGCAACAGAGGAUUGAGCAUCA | 1.14 |
| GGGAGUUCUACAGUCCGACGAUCGUUGCCAGCUUCCGGUUCCGUUGGGCUCGGUUCUCUCCUGAGCUACGUGUCUCUACGCUCUCAAUCCGCCAUCCAACAAACAUGGAUCAGGUAAUGCAGUUUGUGGAGCCCAGCCGGCAGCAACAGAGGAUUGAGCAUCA | 0.0925 |
| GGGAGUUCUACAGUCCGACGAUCCAGGCUGACUAUGUGCCGAGCGAUCAGGACCUGCUUCGCUGCCGUGUCCUGACUUCUGGAAUCUUUGAGACCAAGUUCCAGGUGGACAAAGUCAACUUCCACAUGUUUGACGUGGGUGGCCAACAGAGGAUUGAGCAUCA | 0.0914 |
| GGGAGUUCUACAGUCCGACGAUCGGAGUAAAGGAUGUAGAUGAUUUCUUUGAGCACGAACGAACAUUUCUUUUGGAGUAUCAUAACCGAGUUAAGGAUGCAUCUGCUAAAUCUGAUAGAAUGACAAGAUCCCACAAAAGUGCUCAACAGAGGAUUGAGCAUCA | 0.147 |
| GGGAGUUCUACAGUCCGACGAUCGAACCUGUUGCUGAUGAAGAAGAGGAAGACAGUGAUGAUGAUGUUGAACCUAUUACUGAAUUUAGAUUUGUGCCUAGUGAUAAAUCAGCGUUGGAGGCAAUGUUCACUGCAAUGUGCGAACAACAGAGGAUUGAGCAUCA | 1.11 |
| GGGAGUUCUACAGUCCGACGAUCUGGGUUUGGGGUAGAAGGGUGGGAAGGGGCAGGAUAAGUGGAAUCUCUAGGGUGUAUGGGAAGUAGAGGGCAGUUAGUUCUAAGUGGGCUUUUAUGUUCCCUGUUGUGAGGGUGAGAACACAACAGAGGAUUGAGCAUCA | 37.7 |
| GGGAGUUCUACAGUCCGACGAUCGAAUUACAACCAUAAAAUGUGUAAUGUUUUGAACAGUAUUCUGUUGGGAUGGAGAUUUUAUAGGUUCAGACAAAUCUUCUAGAUCUGCUUCACCCAGCAUAUUUUCUAUUCAGUGAUAUACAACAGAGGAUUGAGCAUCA | 0.181 |
| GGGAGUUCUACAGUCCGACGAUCGAUUAUUUAUUCAAGUUACUUCUGAUUGGCGAUUCUGGGGUUGGAAAGUCCUGCCUUCUCCUUAGGUUUGCAGAUGAUACGUAUACGGAAAGCUACAUCAGCACAAUUGGUGUGGAUUUCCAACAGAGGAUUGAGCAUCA | 1.53 |

Study 2
Target: Sal-like protein 4, full length isoform B (SALL4, Homo sapiens, UniProt Q9UJQ4-2, residues 1-616)
Method: universal PBM
Form: double-stranded DNA, one strand shown
Medium: in vitro
Concentration: not given
Setting: 8-mer, flanks averaged, mean of replicates
Direction: higher = stronger binding
| Sequence | E-score |
| --- | --- |
| TAGCGGGA | -0.14 |
| ACGAATGA | 0.136 |
| GCCCAAAC | -0.178 |
| TAATTCTA | 0.229 |
| ACGAATTA | 0.111 |
| AAGTTATT | 0.356 |
| CATCAGCG | -0.106 |
| TGATAGCA | 0.128 |
| GTCCACCA | -0.182 |
| AGCCCTTA | 0.0605 |
| CCGTCCTA | -0.00089 |
| AGGAACAA | -0.0367 |
| AAACAAAG | 0.104 |
| CACGGTAC | -0.307 |
| AACTTGCA | 0.0904 |
| GCGGGTCA | -0.223 |
| GCGGGGGA | -0.225 |
| AACGCAGT | -0.0883 |
| AGTAGAAT | 0.222 |

Study 3
Target: Histone acetyltransferase KAT6A, both winged helices, GST fusion (KAT6A, Homo sapiens, UniProt Q92794, residues 1-181)
Method: protein binding microarray
Form: double-stranded DNA, one strand shown
Medium: in vitro
Concentration: not given
Setting: 8-mer, flanks averaged, mean of 2 arrays, mostly near background
Baseline: not given
Direction: higher = stronger binding
Residues (chain): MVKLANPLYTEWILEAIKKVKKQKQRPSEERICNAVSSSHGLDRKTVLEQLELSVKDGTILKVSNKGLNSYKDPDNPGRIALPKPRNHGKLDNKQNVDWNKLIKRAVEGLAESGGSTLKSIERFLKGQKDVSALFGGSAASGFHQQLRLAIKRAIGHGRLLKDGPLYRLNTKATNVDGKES
| Sequence | E-score |
| --- | --- |
| AAGTCCCC | -0.117 |
| GTTAGAAA | -0.0662 |
| AATTCGGC | 0.0581 |
| CATCCGAA | 0.000445 |
| CATGAAAG | -0.151 |
| AGTTCGGG | -0.0816 |
| TCACATGA | -0.094 |
| AAGATTAT | -0.106 |
| AAGCTTTC | 0.136 |
| CCCTGAGA | -0.297 |
| GAACATGA | -0.0512 |
| CCAGAATC | -0.0995 |
| AATGGCTC | -0.171 |
| ATTTTCTC | -0.0734 |
| GGACAGGA | -0.0726 |
| CTCTAGTA | -0.0941 |
| GACAGAAC | 0.0685 |
| TAGAGCTA | -0.167 |

Study 4
Target: Ras GTPase-activating protein-binding protein 1, full length (G3BP1, Homo sapiens, UniProt Q13283)
UniProt Q13283, sequence (whole entry, looked up): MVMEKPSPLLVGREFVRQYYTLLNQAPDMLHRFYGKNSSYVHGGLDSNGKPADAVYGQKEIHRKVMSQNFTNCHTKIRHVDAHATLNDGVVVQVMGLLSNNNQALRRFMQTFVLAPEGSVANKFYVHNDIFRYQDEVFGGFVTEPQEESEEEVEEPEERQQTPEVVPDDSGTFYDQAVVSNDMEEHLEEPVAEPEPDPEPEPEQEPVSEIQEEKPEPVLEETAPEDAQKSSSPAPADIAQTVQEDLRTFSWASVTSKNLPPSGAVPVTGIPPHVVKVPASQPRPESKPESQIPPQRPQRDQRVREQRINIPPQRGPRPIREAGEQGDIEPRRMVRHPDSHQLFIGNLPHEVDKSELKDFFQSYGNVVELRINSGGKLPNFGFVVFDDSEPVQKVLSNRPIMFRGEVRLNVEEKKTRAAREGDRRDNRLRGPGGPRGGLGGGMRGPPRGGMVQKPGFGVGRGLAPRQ
Method: RNA Bind-n-Seq
Form: RNA
Medium: in vitro
Concentration: 200 nM
Setting: whole 134-nt RNA, ends assumed
With: 150 mM KCl
Baseline: input library
Direction: higher = stronger binding
| Sequence | log2 enrichment |
| --- | --- |
| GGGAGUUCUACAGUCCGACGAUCGUCCUGUGCUACACAUCGUAUGUACCGAAUCGGGGAAAGGGGUUUGGGGAAAAAGGGGAAAGUAUUAUGUUACGCCGUUCGGAUCUGCACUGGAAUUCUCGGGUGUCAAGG | 0.519 |
| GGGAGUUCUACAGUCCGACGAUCUGUGCUACACAUCGUAUGUACCGAAUCGGGGCCCCCCCGGGCCCCCCCGGGCCCCCCCGGGGAAAGUAUUAUGUUACGCCGUUCGGAUCUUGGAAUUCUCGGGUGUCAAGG | -1.71 |
| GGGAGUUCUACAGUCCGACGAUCAGUCCUGUGCUACACAUCGUAUGUACCGAAUCGGGGCCCCGGCCCCGGGGCCCCGGGGAAAGUAUUAUGUUACGCCGUUCGGAUCUGCACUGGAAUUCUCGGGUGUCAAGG | -1.62 |
| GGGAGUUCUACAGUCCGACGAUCCCUCAAGUCCUGUGCUACACAUCGUAUGUACCGAAUCGGAGGUGGAAAAAGGAAAGUAUUAUGUUACGCCGUUCGGAUCUGCACUUCCAGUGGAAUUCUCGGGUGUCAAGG | -0.151 |
| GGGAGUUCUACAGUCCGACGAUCUCAAGUCCUGUGCUACACAUCGUAUGUACCGAAUCGGGUUUGGUUUGGGUUUGGGAAAGUAUUAUGUUACGCCGUUCGGAUCUGCACUUCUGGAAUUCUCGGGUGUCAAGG | -0.76 |
| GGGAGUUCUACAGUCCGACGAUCUCAAGUCCUGUGCUACACAUCGUAUGUACCGAAUCGGGUUGGGGUUGGGUUGGGAAAGUAUUAUGUUACGCCGUUCGGAUCUGCACUUCCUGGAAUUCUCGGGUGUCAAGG | 1.05 |
| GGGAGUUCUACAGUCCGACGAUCUAACUUUAGAGGAGGAUCUGAUGGAUAUGGCAGUGGACGUGGAGUUGGGGAUGGCUAUAAUGGGUAUGGAGGAGGACCUGGAGGUGGCAAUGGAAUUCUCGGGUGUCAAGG | 0.418 |
| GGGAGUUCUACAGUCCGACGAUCUCAAGUCCUGUGCUACACAUCGUAUGUACCGAAUCGGCCGGGCCGGGGCCGGGGAAAGUAUUAUGUUACGCCGUUCGGAUCUGCACUUCCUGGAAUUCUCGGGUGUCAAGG | -0.411 |
| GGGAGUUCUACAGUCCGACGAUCCUCAAGUCCUGUGCUACACAUCGUAUGUACCGAAUCGGAAGGGAAGGGGAAGGGAAAGUAUUAUGUUACGCCGUUCGGAUCUGCACUUCCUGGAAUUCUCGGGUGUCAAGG | 0.715 |
| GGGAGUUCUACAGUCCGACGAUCGCAGGAAGUAAAAACAAAUGGAAAUGCUUCGGAUAGUGGCAGGGGUGGGGGUUGCUAAGGAAAGGGUGGGAUGGGAGUGGGUAAAGAAUUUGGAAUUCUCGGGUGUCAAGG | 1.24 |

For quick reference, copied from above (study 2):
| Sequence | E-score |
| --- | --- |
| AAACAAAG | 0.104 |
| CACGGTAC | -0.307 |
| AACTTGCA | 0.0904 |
| GCGGGTCA | -0.223 |
